{"data": "Measured values gathered from unrelated publications", "note": "Parts stem from different laboratories: compare values within a part only. “And” joins repeats or separate records; there may be more than shown. Positions count from the first letter of the parent shown."}
{"data": "Series 1", "organism": "Vesicular stomatitis virus", "effect on": "pseudovirus infection", "technique": "FDA-approved drug library screen", "concentration": "concentration not given", "setting": "VSV-G control pseudotype", "relative to": "vehicle"}
{"Compound": "C=C1c2c(Cl)ccc(O)c2C(=O)C2=C(O)[C@]3(O)C(=O)C(C(N)=O)=C(O)[C@@H](N(C)C)[C@@H]3[C@@H](O)[C@H]12.O=C(O)c1cc(S(=O)(=O)O)ccc1O", "GFP-positive cells": "93%"}
{"Compound": "C[C@]12CCC(=O)C=C1CC[C@@H]1[C@@H]2C(=O)C[C@@]2(C)[C@H]1CC[C@]2(O)C(=O)CO", "GFP-positive cells": "96.4%"}
{"Compound": "CCC(=O)Oc1ccc2c(c1)CC[C@@H]1[C@@H]2CC[C@]2(C)[C@@H](OC(=O)CC)CC[C@@H]12", "GFP-positive cells": "120%"}
{"data": "Series 2", "target": "chymotrypsin", "effect on": "enzyme activity", "mode": "inhibitor", "concentration": "10 µM", "setting": "with DTT"}
{"Compound": "Oc1cc2c(cc1O)C(c1ccccc1)CNCC2 (stereo not shown)", "inhibition": "9%"}
{"Compound": "O=C1C=CC(=O)c2c(O)cccc21", "inhibition": "14.9%"}
{"Compound": "NC(CO)C(=O)NNCc1ccc(O)c(O)c1O (stereo not shown)", "inhibition": "0.4%"}
{"Compound": "O=C(O)c1cc(O)c2c(c1)[C@H]([C@H]1c3cc(C(=O)O)cc(O)c3C(=O)c3c(O[C@@H]4O[C@H](CO)[C@@H](O)[C@H](O)[C@H]4O)cccc31)c1cccc(O[C@@H]3O[C@H](CO)[C@@H](O)[C@H](O)[C@H]3O)c1C2=O", "inhibition": "2.7%"}
{"Compound": "CCOC(=O)Cc1ccc(-c2ccccc2)cc1", "inhibition": "-0.9%"}
{"Compound": "Cc1cc(-c2ccc(/N=N/c3ccc4c(S(=O)(=O)O)cc(S(=O)(=O)O)c(N)c4c3O)c(C)c2)ccc1/N=N/c1ccc2c(S(=O)(=O)O)cc(S(=O)(=O)O)c(N)c2c1O", "inhibition": "7.5% and 8.9%"}
{"data": "Series 3", "target": "tungstate, free oxyanion", "technique": "microfluidic competitive inhibition", "matrix": "in vitro, cell-free expressed", "concentration": "not given", "setting": "derived from inhibition constants, unchanged parent 2230 nM", "direction": "lower = stronger binding", "starting sequence": "PafA, mature enzyme, eGFP fusion (Elizabethkingia meningoseptica, UniProt Q9KJX5); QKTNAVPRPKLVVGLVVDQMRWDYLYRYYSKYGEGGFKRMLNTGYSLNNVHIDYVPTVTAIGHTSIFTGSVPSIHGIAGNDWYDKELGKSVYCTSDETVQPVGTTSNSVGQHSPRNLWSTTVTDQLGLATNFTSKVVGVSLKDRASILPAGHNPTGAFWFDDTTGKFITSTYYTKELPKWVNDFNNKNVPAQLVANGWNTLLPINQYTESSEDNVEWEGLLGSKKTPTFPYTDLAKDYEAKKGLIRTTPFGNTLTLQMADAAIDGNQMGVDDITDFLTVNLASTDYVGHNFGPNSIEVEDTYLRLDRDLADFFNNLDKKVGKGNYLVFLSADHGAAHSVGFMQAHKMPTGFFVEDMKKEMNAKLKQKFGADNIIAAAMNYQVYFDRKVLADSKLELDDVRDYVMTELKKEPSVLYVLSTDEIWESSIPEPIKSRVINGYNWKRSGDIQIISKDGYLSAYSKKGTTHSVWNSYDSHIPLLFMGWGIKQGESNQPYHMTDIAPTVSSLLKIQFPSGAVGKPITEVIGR"}
{"Change": "R115G", "oxyanion analog dissociation constant": "2.2 µM"}
{"Change": "H466G", "oxyanion analog dissociation constant": "25.1 µM"}
{"Change": "Y83G", "oxyanion analog dissociation constant": "721 nM"}
{"Change": "K2V", "oxyanion analog dissociation constant": "2.73 µM"}
{"Change": "R386V", "oxyanion analog dissociation constant": "2.25 µM"}
{"Change": "T171V", "oxyanion analog dissociation constant": "2.03 µM"}
{"Change": "V388A", "oxyanion analog dissociation constant": "1.51 µM"}
{"Change": "L117V", "oxyanion analog dissociation constant": "1.97 µM"}
{"data": "Series 4", "target": "Kappa-type opioid receptor (OPRK1, Homo sapiens, UniProt P41145)", "effect on": "binding", "technique": "radioligand binding", "concentration": "10 µM", "sequence of UniProt P41145 (whole entry, looked up)": "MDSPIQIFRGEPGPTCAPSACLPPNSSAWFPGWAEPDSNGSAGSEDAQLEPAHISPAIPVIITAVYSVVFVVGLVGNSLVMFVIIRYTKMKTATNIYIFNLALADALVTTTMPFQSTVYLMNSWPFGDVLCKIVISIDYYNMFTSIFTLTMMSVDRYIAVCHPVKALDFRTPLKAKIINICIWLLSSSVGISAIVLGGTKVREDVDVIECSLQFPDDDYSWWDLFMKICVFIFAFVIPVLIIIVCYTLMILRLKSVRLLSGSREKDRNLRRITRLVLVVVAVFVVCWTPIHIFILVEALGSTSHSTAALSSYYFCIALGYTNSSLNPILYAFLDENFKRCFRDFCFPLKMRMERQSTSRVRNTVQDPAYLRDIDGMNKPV"}
{"SMILES": "COc1nc2ccc([C@@](O)(c3ccccc3)C3CCN(C(C)=O)CC3)cc2c(Cl)c1Cc1ccc(-n2cccn2)cc1", "inhibition [%]": -6}
{"SMILES": "CN1C(=O)[C@@H](N2CCc3cn(Cc4ccccc4)nc3C2=O)COc2ccccc21", "inhibition [%]": 14.7}
{"SMILES": "CC(C)CC(=O)N1CCc2nc(-c3ccc(Br)cc3)nc(N(C)Cc3ccccc3)c2C1", "inhibition [%]": 38}
{"SMILES": "O=C(NC[C@@H]1[C@H]2CN(C(=O)OCc3cc(C(F)(F)F)cc(C(F)(F)F)c3)C[C@@H]12)c1ccc2[nH]nnc2c1", "inhibition [%]": 27.8}
{"SMILES": "C[C@H](NC(=O)c1cnc2n1[C@](C)(Cc1ccc(C#N)cc1)C(=O)N2c1cc(Cl)c(F)c(Cl)c1)C(=O)NC1(c2ccccn2)CC1", "inhibition [%]": 9.67}
{"SMILES": "Cc1nc(Cc2cccc(C(F)(F)F)c2)sc1-c1ccc(C(N)=O)nc1", "inhibition [%]": 3.47}
{"SMILES": "O=C(Nc1ccc(-n2nc(-c3cccnc3)cc2C(F)(F)F)cn1)c1ccc(-c2ccccc2)c(F)c1", "inhibition [%]": 13.8}
{"SMILES": "CC(=O)N1CCC(c2ccc(C(=O)NC(=N)N)cc2C(F)(F)F)CC1", "inhibition [%]": 9.26}
{"SMILES": "O=C(Nc1cnc(Oc2ccc(F)cc2)nc1)N1CCc2ncccc2[C@@H]1c1ccc(F)cc1", "inhibition [%]": 56.3}
{"SMILES": "CC(=O)c1c(NS(C)(=O)=O)c2cc(-c3ccc(Cl)cc3)c(-c3ccc(Cl)cc3Cl)nc2n(C)c1=O", "inhibition [%]": 2.99}
{"SMILES": "O[C@]1(C(F)(F)F)CCCC[C@H]1Nc1ccc(F)cc1", "inhibition [%]": 9.94}
{"SMILES": "O=C(Nc1cccnn1)N1CC(CC=Cc2cncc(Oc3ccc(C(F)(F)F)cn3)n2)C1", "inhibition [%]": -16.2}
{"SMILES": "Cc1nc(C2CCN(C(=O)c3ccc(OC(F)(F)F)cc3N)CC2)c2ncc(N3CCN(C)CC3)cc2n1", "inhibition [%]": 21.2}
{"SMILES": "CN1CCN(C(=O)C(C)(C)c2ccc(C(=O)Nc3cn4cc(-c5ccncc5)ccc4n3)cc2)CC1", "inhibition [%]": -6.32}
{"SMILES": "O=C(O)c1cc(-c2ccc(C3CCNCC3)cc2)c2ccc(-c3ccc(C(F)(F)F)cc3)cc2c1", "inhibition [%]": 41.7}
{"SMILES": "COc1cc(-c2cn(C3CCc4ccccc4N(CC(F)(F)F)C3=O)nn2)ccc1-n1ccc(C)n1 (stereo not shown)", "inhibition [%]": 13.6}
{"SMILES": "CC1=C(C#N)C(c2ccc3c(c2)c(NC(=O)c2ccccc2C)nn3C)C(C#N)=C(C)N1", "inhibition [%]": 21.6}
{"SMILES": "COCc1nc2cnc3cc(-c4c(C)noc4C)c(OC[C@H]4CCNC4)cc3c2n1[C@H](C)c1ccccc1", "inhibition [%]": 15.5}
{"SMILES": "O=C(Nc1cccnn1)N1CCC(=Cc2cccc(Oc3ccc(C(F)(F)F)cn3)c2)CC1", "inhibition [%]": 30.5}
{"SMILES": "C[C@@H]1CN(c2cc(-c3nn(C)c4ccc(OC5(C)CC5)cc34)ncn2)C[C@H](C)O1", "inhibition [%]": 13.1}
{"SMILES": "CNC(=O)Nc1ccc2c(c1)[C@]1(CC2)OC(=O)N(CC(=O)N(Cc2ccc(F)cc2)[C@@H](C)C(F)(F)F)C1=O", "inhibition [%]": 8.21}
{"SMILES": "Cc1c(N2CCCC2)nc2ccc(Br)cc2c1C(=O)NC[C@H](CCC(=O)O)c1ccccc1Cl", "inhibition [%]": 15.4}
{"SMILES": "COc1cccc(CNC(=O)c2nc3scc(COCc4ccc(C(=O)O)cc4)c3c(=O)[nH]2)c1", "inhibition [%]": 8.18}
{"SMILES": "Cc1c(NC(=O)c2cc(C(N)=O)nc3cc(F)ccc23)c(C(F)(F)F)nn1Cc1ccc(C(C)(C)C)cc1", "inhibition [%]": 22.1}
{"SMILES": "CCCOc1ccc([C@H]2[C@H](C(=O)O)[C@@H](c3ccc4c(c3)OCO4)CN2CC(=O)Nc2c(CC)cccc2CC)cc1", "inhibition [%]": 35.3}
{"data": "Series 5", "target": "CCND2, cyclin fold, Cln2 fusion (human)", "technique": "yeast growth competition, sequencing", "matrix": "yeast", "setting": "weak parent motif", "relative to": "not given", "direction": "higher = stronger binding", "starting sequence": "viral docking peptide; PTARRRLLHDLDT"}
{"Change": "PTARRRALHDLDT [L7A]", "normalised enrichment score": -0.0382}
{"Change": "PTARKRLLFDLDT [R5K H9F]", "normalised enrichment score": 0.727}
{"Change": "PTARRRLLADLDT [H9A]", "normalised enrichment score": 0.321}
{"Change": "PTARKRLFHDLDT [R5K L8F]", "normalised enrichment score": 0.0874}
{"Change": "PTARRRLLHDLAT [D12A]", "normalised enrichment score": -0.345}
{"Change": "PTARRRLAHDLDT [L8A]", "normalised enrichment score": -0.345}
{"Change": "PTARAAAAHDLDT [R5A R6A L7A L8A]", "normalised enrichment score": 0.059}
{"Change": "ATARRRLLHDLDT [P1A]", "normalised enrichment score": 0.264}
{"data": "Mixed results"}
{"Structure (SMILES)": "CN[C@@H]1C[C@@H](c2ccc(Cl)c(Cl)c2)c2ccccc21", "tested on": "mouse MPNST tumor cells", "assay": "high-content nuclear imaging, item: cell number", "conditions": "10 µM, 12 h, mean of 2 replicates", "scale": "relative to: plate mean, higher = more cells", "measurement": "nuclei count", "value": "-4.38 z-score"}
{"Structure (SMILES)": "COc1cc2c(cc1OC)[C@@H]1C(=O)c3ccc4oc(C(C)C)cc4c3O[C@@H]1CO2", "test system": "human, microsomes or S9", "conditions": "2 µM, 0.5 h", "measurement": "remaining compound", "value": "5.75%"}
{"Structure (SMILES)": "CN(C(=O)c1ccn2ncc(-c3ccc(C(N)=O)cc3)c2c1)c1ccc(C#N)cn1", "tested on": "C. parvum PI4K Y705A/Y907A", "assay": "enzyme activity, inhibitor, ADP-Glo", "scale": "relative to: mutant over wild type", "measurement": "fold IC50 shift", "value": "164 and 258"}
{"Structure (SMILES)": "CN1C(=O)CCS(=O)(=O)C1c1ccc(Cl)cc1 (stereo not shown)", "tested on": "HaCaT", "conditions": "100 µM, 60 h", "measurement": "viability", "value": "149%"}
{"Structure (SMILES)": "C=C(C)[C@H]1Cc2c(ccc3c2O[C@@H]2COc4cc(OC)c(OC)cc4[C@@H]2C3=O)O1", "test system": "human, microsomes or S9", "conditions": "2 µM, 0.5 h", "measurement": "remaining compound", "value": "28.8%"}
{"note": "Repeated from above (series 1):"}
{"Compound": "C[C@]12CCC(=O)C=C1CC[C@@H]1[C@@H]2C(=O)C[C@@]2(C)[C@H]1CC[C@]2(O)C(=O)CO", "GFP-positive cells": "96.4%"}
{"Compound": "CCC(=O)Oc1ccc2c(c1)CC[C@@H]1[C@@H]2CC[C@]2(C)[C@@H](OC(=O)CC)CC[C@@H]12", "GFP-positive cells": "120%"}
{"Compound": "C=C1c2c(Cl)ccc(O)c2C(=O)C2=C(O)[C@]3(O)C(=O)C(C(N)=O)=C(O)[C@@H](N(C)C)[C@@H]3[C@@H](O)[C@H]12.O=C(O)c1cc(S(=O)(=O)O)ccc1O", "GFP-positive cells": "93%"}
